Published values of several laboratories.
Numbered parts are unrelated; each lists some results of a single study.

Study 1
Target: RING finger protein unkempt homolog, zinc fingers 1-6, GST-SBP tag (UNK, Homo sapiens, UniProt Q9C0B0, residues 30-357)
Chain of UniProt Q9C0B0 (30-357, looked up): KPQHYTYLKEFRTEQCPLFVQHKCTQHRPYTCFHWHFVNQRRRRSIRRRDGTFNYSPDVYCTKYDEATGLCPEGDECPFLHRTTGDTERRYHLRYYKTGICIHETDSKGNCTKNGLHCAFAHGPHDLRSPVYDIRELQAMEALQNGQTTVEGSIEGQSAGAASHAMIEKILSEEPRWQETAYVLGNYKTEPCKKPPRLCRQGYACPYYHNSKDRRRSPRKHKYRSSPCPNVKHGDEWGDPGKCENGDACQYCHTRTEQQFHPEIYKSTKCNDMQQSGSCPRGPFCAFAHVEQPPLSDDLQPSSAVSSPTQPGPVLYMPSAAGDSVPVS
Method: RNA Bind-n-Seq
Form: RNA
Medium: in vitro
Tested at: not given
Setting: RNA with constant flanks, human and mouse sites, ends assumed
Relative to: input RNA pool
Reading: higher = stronger binding
Measurement: bound/input enrichment
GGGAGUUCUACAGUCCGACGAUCGACAGAACCUUCCAGAAAGAGAUAAGCCUCAAGACCCUGGUGUUCAAAGCUUACAGGUGUUUCUUCAUUGCUCAGUCUUACGUGCUGGUGAAGAAGUGGAGCGAAGCCCUCGUCCUGUACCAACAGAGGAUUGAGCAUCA: 0.115 ratio
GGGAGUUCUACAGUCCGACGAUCGAAAGUUCACAAAUGACAGAACAUAGAAAGGUUUCUGAUCACAUACAGUGGUUUAACAAGCUUUCUUUAAAUGAACCAAAUAGAAUAAAAGUCAAGUCACCUCUUAAGUUUCAGCGUACUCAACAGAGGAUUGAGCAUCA: 2.15 ratio
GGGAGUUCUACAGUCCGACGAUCUUCUUCCCGAAGAGAACCACAGCCCUGCUUCUCCCUGGUAUCAUUAAAGCGGCUGCUCGCAUACUGUACGAAAGCCACGUGGAGGUGUCCCUGAUGCCUCCCUGCUUCCGAAGUGACUGUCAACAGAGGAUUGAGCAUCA: 0.115 ratio
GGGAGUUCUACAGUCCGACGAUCAGGAGUGCACUUUUGUUUUGUUUUGUUCUUUUUGGAACUGUGCCUGGGUUGGAGGUCUGGACAGGGAGCCCAGUCCCGGGCCCCAUAGUGGUGCGGGCACUGGACCCCCGGGCCCCACGGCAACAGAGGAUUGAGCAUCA: 0.221 ratio
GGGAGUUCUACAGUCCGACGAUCGGAGGGUCUGAUUUUUUAAGGAAAAGAUUGCAGAAAGGGCAAAAGUAUUUUGAUUCUGGGGACUACAACAUGGCAAAAGCAAAGAUGAAGAACAAGCAGCUUCCUGCUGCAGCCCCGGAUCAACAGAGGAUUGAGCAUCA: 0.513 ratio
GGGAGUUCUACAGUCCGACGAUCAGCAACGGAGAGCCCCACUUCCUACCAGAUGCAAUGUUUGGGCAACCAGGAGCCCUAGGUAGCACUCCAUUUCUUGGUCAGCAUGGUUUUAAUUUCUUUCCCAGUGGGAUUGACUUCUCACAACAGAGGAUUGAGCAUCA: 0.389 ratio
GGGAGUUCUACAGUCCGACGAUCUAUUAUGGAAUACCAAAGUGAAGGGAUUUUGUCAUUCAGCAGACUGUUUCAUAUCCAGAAUAGUUCUUCCCUUACCCUUUCAGUCAUAAUUAAAAACCUAAGCUUUCUGGUAAAGUAGGACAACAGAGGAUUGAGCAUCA: 0.439 ratio
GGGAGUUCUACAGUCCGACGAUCAAUCGGAAGAAGCUUUCAGAGCUGUUGCGGUACUACACAUCUGCUUCUGGGGACGAGAUGGUUUCUCUGAAGGACUACUGUACCAGAAUGAAGGAAAACCAGAAGCACAUCUAUUUUAUCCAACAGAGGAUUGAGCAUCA: 0.118 ratio

Study 2
Target: RNA binding protein fox-1 homolog 2, RRM domain, GST-SBP tag (RBFOX2, Homo sapiens, UniProt O43251-10, residues 100-194)
Method: RNA Bind-n-Seq
Form: RNA
Medium: in vitro
Tested at: 365 nM
Setting: natural RNA segment, single round, ends assumed
Relative to: no-protein control
Reading: higher = stronger binding
Measurement: RBNS enrichment (R)
Target sequence (chain): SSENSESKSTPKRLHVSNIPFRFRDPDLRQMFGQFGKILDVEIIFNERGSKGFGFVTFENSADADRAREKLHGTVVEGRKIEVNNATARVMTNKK
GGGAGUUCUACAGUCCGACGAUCUUUGUAUUGUAAAAUAACAGCUAAUUUCAUCAGGAACAAGAGAAUUAAGGGGGUCUGCAUUUUAAAUGCAGAUGUGAAGCACUUGUAUAUAAAUAAAAGUAAAUACUAUAUGGAAUUCUCGGGUGCCAA: 0.772
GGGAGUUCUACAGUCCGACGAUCGAGGCCUCUUCCAAUGUUAGUCUUUUCUAAGGUAAUUUUUAGUAGGUCAUAAUUCAGUAUAUACUAGCCUACUCAUCUCUGAAGACUGACUUUGCUCGUAAUUUUUUUUUUGGAAUUCUCGGGUGCCAA: 0.614
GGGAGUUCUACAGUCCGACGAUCGUUCACUUUAAUUUAUUUAUGCUGUAAGUUAUUUUUGCUUCCUUCUCCUGGACCCACUUCCAGUCCCGUUUUGCAUUCCCCUUUGGAUUUUGCUUUGGCUAUUUUUUGUUUGGAAUUCUCGGGUGCCAA: 1.1
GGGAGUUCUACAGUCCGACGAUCCACCGUUCAGGAGGAAGAAAGACUCGGUCACUGAGUGAAGUGGGCUGUGCUCCUGUGAACUGCAGUGCUCCUUGUGCCUGCUGUGAACUGCAGUGCUCCCCAGUGCAGUCUGGAAUUCUCGGGUGCCAA: 1.39
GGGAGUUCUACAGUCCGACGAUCCCUACCCAGGGUCACCCAACACACUCUGCCUUGAGCCUCUCCUCAGGGUCUAUUCCUUGCGUGGAUUAUGUGGCCGUAGCAUGUUACAGUUCAAACAUGUCUCCACUACCUGGAAUUCUCGGGUGCCAA: 6.84
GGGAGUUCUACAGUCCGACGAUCGGGCCUGCUGGAGUUCCGGCCUGGGCACCAGCAUUUGGCAGCACGCAGGCGGGGCAGUAUGUGAUGGACUGGGGAGCACAGGUGUCUGCCUAGAUCCACGUGUGGCCUCCUGGAAUUCUCGGGUGCCAA: 1.33
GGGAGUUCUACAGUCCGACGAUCCUCCUUUGGGUAAGAGUCUGUUUGCCAUACAUCACUCUUCCACUGUGGCUUGGUAUUGUGCAGAUUACCUCUUUGAUAGGUCUAGUCACCUUGUUCAGUGCCUGUCUAACUGGAAUUCUCGGGUGCCAA: 0.68
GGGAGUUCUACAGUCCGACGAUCUCCCAUACUCACUCCUGACAGCUUUCCUGCACUGCAGCCUCCUGCUCCUCUGACUCUAGUGGGAACAGGCCCCAGCUCAGCCUCCGGCAGGGAGGUCACCCCUCCACUUCUGGAAUUCUCGGGUGCCAA: 0.311

Study 3
Target: Histone acetyltransferase KAT6A, both winged helices, GST fusion (KAT6A, Homo sapiens, UniProt Q92794, residues 1-181)
Method: protein binding microarray
Form: double-stranded DNA, one strand shown
Medium: in vitro
Tested at: not given
Setting: 8-mer, flanks averaged, mean of 2 arrays, mostly near background
Relative to: not given
Reading: higher = stronger binding
Measurement: E-score
Construct (chain): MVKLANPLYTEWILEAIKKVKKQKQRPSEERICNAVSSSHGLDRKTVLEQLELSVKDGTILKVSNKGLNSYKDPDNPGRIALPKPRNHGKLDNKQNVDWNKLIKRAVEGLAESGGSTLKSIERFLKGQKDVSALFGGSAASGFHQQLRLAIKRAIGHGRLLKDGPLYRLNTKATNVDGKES
GAAGATTA: 0.0161
CCCAGCGG: 0.143
ACGCATCC: 0.116
CGTCGAAG: 0.124
ACATTATC: 0.00946
GCGCTCAA: 0.252
ACTAAGCG: 0.144
AACTCAGA: -0.176
ACCATGGG: 0.0291
GACGCCTC: -0.031
ACGACATA: -0.167
CCAAGTAG: -0.304
GCTCTCCA: -0.295
ACCCACGT: -0.28
ACGGTCCT: -0.0943
AGCTTGAA: -0.0861
GCATGACC: -0.00676
AAGCATGA: 0.00975
CCTAGAAG: -0.023
ACACACTC: -0.168
AATGTCCA: -0.169
CCGCTTGC: 0.234
GGCGCCTA: 0.265
ACTACAGT: -0.146

Study 4
Target: Prothrombin, mature alpha-thrombin (F2, Homo sapiens, UniProt P00734)
Method: aptamer microarray, sandwich
Form: DNA with 2'F-ANA
Medium: in vitro
Tested at: 200 nM
Setting: whole 15-mer aptamer, many near background
With: Cy3 exosite-II aptamer, 400 nM
Reading: higher = stronger binding
Measurement: mean fluorescence intensity
Sequence: GGTTGGTGTGGTTGG
2'F-ANA at 1 2 3 4 5 6 7 8 9 13 15: 52.8 a.u.
2'F-ANA at 3 4 6 7 8 9 12 14 15: 303 a.u.
2'F-ANA at 2 4 6 9 12 13 14: 80.7 a.u.
2'F-ANA at 5 6 7 8 10: 45.3 a.u.
2'F-ANA at 5 6 8 9 10 11 12 14 15: 49 a.u.
2'F-ANA at 1 2 3 4 6 12 13 14 15: 67.4 a.u.
2'F-ANA at 1 2 10 11 14 15: 54.9 a.u.
2'F-ANA at 1 4 7 8 9 13: 87.7 a.u.
2'F-ANA at 1 3 5 6 9 11 12 13 15: 73 a.u.
2'F-ANA at 2 4 6 8 11 12 13 14: 94.7 a.u.
2'F-ANA at 1 2 6 7 8 10 13 14: 46.8 a.u.
2'F-ANA at 2 3 6 12 13: 922 a.u.
2'F-ANA at 1 2 3 6 8 9 11 14: 66.8 a.u.
2'F-ANA at 1 5 8 11: 51.8 a.u.
2'F-ANA at 1 2 4 6 11 13 15: 69.2 a.u.
2'F-ANA at 1 2 3 4 5 6 7 8 9 10 13 14: 54.9 a.u.

Repeated from above (study 4):
2'F-ANA at 5 6 7 8 10: 45.3 a.u.
2'F-ANA at 5 6 8 9 10 11 12 14 15: 49 a.u.
2'F-ANA at 1 2 3 4 6 12 13 14 15: 67.4 a.u.
2'F-ANA at 1 2 10 11 14 15: 54.9 a.u.
